Measurements pooled from the literature.
Values joined by “and” are separate records of one study, mostly repeats; a detail may differ. ± gives the spread as reported.
TDP1: Tyrosyl-DNA phosphodiesterase 1 (TDP1, Homo sapiens, UniProt Q9NUW8)
Chain of UniProt Q9NUW8 (whole entry, looked up): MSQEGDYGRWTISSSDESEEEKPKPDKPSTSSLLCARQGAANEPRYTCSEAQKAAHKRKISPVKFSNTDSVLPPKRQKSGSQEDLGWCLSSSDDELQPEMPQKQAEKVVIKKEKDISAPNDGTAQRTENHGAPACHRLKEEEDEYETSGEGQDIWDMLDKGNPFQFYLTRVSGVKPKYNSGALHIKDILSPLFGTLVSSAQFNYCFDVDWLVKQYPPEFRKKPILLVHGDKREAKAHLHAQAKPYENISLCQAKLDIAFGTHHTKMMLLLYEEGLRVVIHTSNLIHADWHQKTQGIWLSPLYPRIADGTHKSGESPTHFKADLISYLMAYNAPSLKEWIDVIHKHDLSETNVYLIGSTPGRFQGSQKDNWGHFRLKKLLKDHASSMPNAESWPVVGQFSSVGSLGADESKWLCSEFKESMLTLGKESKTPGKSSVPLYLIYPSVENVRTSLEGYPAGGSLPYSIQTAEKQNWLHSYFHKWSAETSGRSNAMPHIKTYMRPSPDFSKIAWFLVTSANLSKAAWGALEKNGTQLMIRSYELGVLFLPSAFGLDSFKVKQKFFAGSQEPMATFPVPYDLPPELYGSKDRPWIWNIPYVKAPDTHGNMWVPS

Structure (SMILES) | tested on | assay | test system | conditions | scale | measurement | result
CCC(=O)N[C@@H](C)C(=O)OCC(=O)N[C@@H](C)C(=O)O |  |  | water | pH 2, 65 °C |  | side-chain scission rate constant | 0.0074 h⁻¹
Cc1cccc(C)c1CNc1cc(C(=O)N2CCC2)cn2c(C)c(C)nc12 |  | basal gastric acid secretion | pylorus-ligated rat | oral, 2 mg/kg |  | inhibition | 91%
COCC1CN(C2CCN(c3cc(OC)c(Nc4ncc(Br)c(Nc5ccc6c(c5P(C)(C)=O)OCCO6)n4)cc3C)CC2)C1 |  | RECIST 1.1 | advanced EGFR-mutant NSCLC patients | 240 mg once daily |  | progressive disease | 100%
COc1ccccc1-c1ccncc1C(=O)Nc1nnc(OCc2ccc(Cl)cc2)s1 |  |  | Brca1 Δ11/Δ11 Polq-/- MEF, Mus musculus | 10 µM | reference: 0 µM | colony survival | 81.3%
COC1CN([C@H]2CC[C@H]([C@@]3(C)Oc4c(Cl)cc(C(=O)NCc5c(SC)cc(C)[nH]c5=O)c(C)c4O3)CC2)C1 |  | RNA-seq, item: HIC1 mouse homolog | mouse, HT-1376 xenograft, whole blood | dose not given | reference: vehicle | log2 fold change | 1.38
CC(=O)N1N=C(Nc2ccc(-c3ccc(NC4=NN(C(C)=O)C(c5ccc(N(C)C)cc5)C4)cc3)cc2)CC1c1ccc(N(C)C)cc1 (centres unmarked) |  | carrageenan paw oedema | albino rat | oral, 50 mg/kg, 3 h |  | inhibition | 25.4%
COc1ccc(NC(=O)c2ccc3[nH]c(-c4ccc(N(C)C)cc4)nc3c2)cn1 |  |  | Lewis lung carcinoma, mice, syngeneic graft, subcutaneous | intraperitoneal, 25 mg/kg daily, day 0 |  | tumour volume | 109 mm3 and 119 mm3 and 143 mm3 and 138 mm3
Cc1[nH]nc2c1N=C(c1ccccc1Cl)c1cnc(N3CCOCC3)cc1N2 |  |  | mouse sample H TNBC PDX | oral, 15 mg/kg, 120 h, 5 days per week |  | tumour growth inhibition | 99%
O=C(C=Cc1ccc(O)cc1)Nc1ccc(-c2ccc(NC(=O)C=Cc3ccc(O)cc3)cc2)cc1 |  | carrageenan paw oedema | albino rat | oral, 50 mg/kg, 3 h |  | inhibition | 19.4%
COc1cc(O)ccc1CCC(c1ccc(O)cc1)c1cc2c(c(C)c1O)OC(c1ccc(O)cc1)CC2 (mixture of isomers) |  | item: 7-HDHA | human whole blood | 30 µM, added: Escherichia coli |  | amount | 33 ± 15 pg/mL blood
CC[C@H](C)[C@@H](C(=O)N[C@@H](CC(C)C)C(=O)N[C@@H](CO)C(=O)N[C@@H](CO)C(=O)N[C@H](C(=O)N[C@@H](CCC(=O)O)C(=O)N[C@H](C(=O)NCC(=O)N[C@@H](CO)C(=O)N[C@@H](CCCN)C(=O)N[C@H](C(=O)N1C[C@H](O)C[C@H]1C(N)=O)[C@@H](C)O)C(C)C)[C@@H](C)O)N(C)C(=O)[C@H](C)NC(=O)CN(C)C(=O)[C@H](Cc1ccccc1)NC(=O)[C@H](CO)NC(=O)[C@H](CO)NC(=O)[C@H](CCCNC(=N)N)NC(=O)[C@@H](NC(=O)[C@H](CC(C)C)NC(=O)[C@H](Cc1ccccc1)NC(=O)[C@H](Cc1c[nH]cn1)NC(=O)[C@H](C)NC(=O)[C@H](CC(C)C)NC(=O)[C@H](CCCNC(=N)N)NC(=O)[C@H](CCC(=O)O)NC(=O)[C@@H](NC(=O)[C@H](C)NC(=O)[C@@H]1CSSC[C@H](NC(=O)[C@H](CCCNC(=N)N)NC(=O)CC[C@H](NC(=O)CCCCCCCCCCCCCCCCCCC(=O)O)C(=O)O)C(=O)NCC(=O)N[C@@H]([C@@H](C)O)C(=O)N[C@@H](C)C(=O)N[C@@H]([C@@H](C)O)C(=O)N1)[C@@H](C)O)[C@@H](C)O |  |  | male Sprague-Dawley rats | subcutaneous, 30 nmol/kg single dose, 24 h | reference: vehicle | food intake | 80.3 ± 2.7%
O=C(O)c1ccc(Nc2c(-c3ccc(CON=Cc4ccc(-c5cccs5)nc4)cc3)nc3cc(-c4ccccc4)ccn23)cc1 (mixture of isomers) | TDP1 | enzyme activity, inhibitor |  | 100 µM, unpurified compound |  | inhibition | 6.9%
CC(CCC(=O)NCc1ccc(C(=O)NO)cc1)C1CCC2C3C(O)CC4CC(O)CCC4(C)C3CCC12C (centres unmarked) |  | item: UDCA | PCK rat (Pkhd1 mutant), bile | oral gavage, dose not given, 5 months | reference: total bile acids | relative abundance | 0.05%
COc1ccc(C(=O)CCc2cc(C(CCc3ccc(O)cc3OC)c3ccc(O)cc3)c(O)cc2OC)cc1 (racemic) |  |  | human blood | 10 µM, added: A23187 |  | 12-HETE level | 10300 ± 4320 pg/mL
O=S(=O)(NCc1ccncc1)c1ccc(C2CCCCC2)cc1 |  | immunohistochemistry | CK-p25 mice female, hippocampus | ip, 0.3 mg/kg daily, 6 wk | reference: vehicle | C1q area reduction | ~15%
CC(C)C[C@H](NC(=O)CNC(=O)[C@H](CCC(N)=O)NC(=O)[C@H](CC(C)C)NC(=O)[C@H](CC(C)C)NC(=O)[C@H](CCCNC(=N)N)NC(=O)[C@H](CCC(N)=O)NC(=O)[C@H](CC(C)C)NC(=O)[C@H](CCCNC(=N)N)NC(=O)[C@H](C)NC(=O)CNC(=O)[C@H](CCC(=O)O)NC(=O)[C@H](CCCNC(=N)N)NC(=O)[C@H](CC(C)C)NC(=O)[C@H](CCCNC(=N)N)NC(=O)[C@H](CO)NC(=O)[C@H](CC(C)C)NC(=O)[C@H](CCC(=O)O)NC(=O)[C@H](CO)NC(=O)[C@@H](NC(=O)[C@H](Cc1ccccc1)NC(=O)[C@@H](NC(=O)CNC(=O)[C@H](CC(=O)O)NC(=O)C(C)(C)NC(=O)[C@@H](N)Cc1c[nH]cn1)[C@@H](C)O)[C@@H](C)O)C(=O)N[C@@H](CC(C)C)C(=O)N[C@@H](CCC(N)=O)C(=O)NCC(=O)N[C@@H](CC(C)C)C(=O)N[C@H](C(=O)NCC(=O)N[C@@H](CCCCNC(=O)COCCOCCNC(=O)COCCOCCNC(=O)CC[C@H](NC(=O)CCCCCCCCCCCCCCCCC(=O)O)C(=O)O)C(N)=O)C(C)C |  | cAMP reporter gene | CRE-Luc mouse, kidney homogenate | subcutaneous, 300 nmol/kg, 6 h | reference: vehicle | luciferase induction | 6 fold
COCCOCCOCCNC(=O)Cc1cc(CC(=O)N[C@H]2C[C@H]3C(=O)Nc4cc(OCCOCCOCCOC)cc(n4)C(=O)N4CCC[C@H]4C(=O)Nc4cc(OCCOCCOCCOC)cc(n4)C(=O)N4CCC[C@H]4C(=O)Nc4cc(OCCOCCOCCOC)cc(n4)C(=O)N3C2)cc(CC(=O)N[C@H]2C[C@H]3C(=O)Nc4cc(OCCOCCOCCOC)cc(n4)C(=O)N4CCC[C@H]4C(=O)Nc4cc(OCCOCCOCCOC)cc(n4)C(=O)N4CCC[C@H]4C(=O)Nc4cc(OCCOCCOCCOC)cc(n4)C(=O)N3C2)c1 |  | anion binding, ITC | water | 298 K, added: sodium bromide |  | TΔS | 22 ± 0.1 kJ mol^–1
COc1ccccc1C1CC(Nc2ccc(-c3ccc(NC4=NOC(c5ccccc5OC)C4)cc3)cc2)=NO1 (centres unmarked) |  | carrageenan paw oedema | albino rat | oral, 50 mg/kg, 3 h | reference: vehicle | inhibition | 39.4%
C#CCOc1ccc(-c2nncnn2)cc1 |  |  | 1,4-dioxane | 25 °C, added: TCO |  | second order rate constant | 72 ± 5 M⁻¹ s⁻¹
Cc1sc2ccc(C=NOCc3ccc(-c4nc5cc(-c6ccccc6)ccn5c4Nc4ccc(C(=O)O)cc4)cc3)cc2[n+]1C.[I-] (mixture of isomers) | TDP1 | enzyme activity, inhibitor |  | 100 µM, unpurified compound |  | inhibition | 101%

Some of these lines once more:
Structure (SMILES) | tested on | assay | test system | conditions | scale | measurement | result
CCC(=O)N[C@@H](C)C(=O)OCC(=O)N[C@@H](C)C(=O)O |  |  | water | pH 2, 65 °C |  | side-chain scission rate constant | 0.0074 h⁻¹
Cc1cccc(C)c1CNc1cc(C(=O)N2CCC2)cn2c(C)c(C)nc12 |  | basal gastric acid secretion | pylorus-ligated rat | oral, 2 mg/kg |  | inhibition | 91%
COCC1CN(C2CCN(c3cc(OC)c(Nc4ncc(Br)c(Nc5ccc6c(c5P(C)(C)=O)OCCO6)n4)cc3C)CC2)C1 |  | RECIST 1.1 | advanced EGFR-mutant NSCLC patients | 240 mg once daily |  | progressive disease | 100%
